# Measurements gathered from unrelated publications.
# A part holds a random share of what one study measured. Several values in a cell are separate wells, animals, samples, runs or records. Substitutions count along the parent as printed.
# Chain of UniProt P21802 (whole entry, looked up): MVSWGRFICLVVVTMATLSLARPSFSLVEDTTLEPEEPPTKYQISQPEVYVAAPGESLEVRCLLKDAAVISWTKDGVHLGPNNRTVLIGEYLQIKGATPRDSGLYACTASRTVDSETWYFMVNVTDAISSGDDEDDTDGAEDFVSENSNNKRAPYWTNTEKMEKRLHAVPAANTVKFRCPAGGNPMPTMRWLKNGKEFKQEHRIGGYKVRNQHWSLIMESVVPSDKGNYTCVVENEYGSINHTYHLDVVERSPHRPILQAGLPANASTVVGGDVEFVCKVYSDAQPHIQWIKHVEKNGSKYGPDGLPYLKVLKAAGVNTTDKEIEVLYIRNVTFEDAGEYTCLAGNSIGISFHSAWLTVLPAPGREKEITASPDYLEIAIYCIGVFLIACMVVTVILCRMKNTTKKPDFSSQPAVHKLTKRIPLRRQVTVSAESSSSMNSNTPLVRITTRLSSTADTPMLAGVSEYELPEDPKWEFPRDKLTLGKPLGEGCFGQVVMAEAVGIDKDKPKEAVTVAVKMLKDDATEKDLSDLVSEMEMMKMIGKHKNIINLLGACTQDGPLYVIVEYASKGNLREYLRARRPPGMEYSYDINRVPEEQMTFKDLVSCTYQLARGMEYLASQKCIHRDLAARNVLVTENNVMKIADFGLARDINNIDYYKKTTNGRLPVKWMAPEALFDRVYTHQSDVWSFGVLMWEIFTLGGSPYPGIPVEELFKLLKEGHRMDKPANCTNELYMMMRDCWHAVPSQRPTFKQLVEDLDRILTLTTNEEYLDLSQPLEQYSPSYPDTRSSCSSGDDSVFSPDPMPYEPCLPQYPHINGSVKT
# Chain of UniProt Q9Y4K4 (whole entry, looked up): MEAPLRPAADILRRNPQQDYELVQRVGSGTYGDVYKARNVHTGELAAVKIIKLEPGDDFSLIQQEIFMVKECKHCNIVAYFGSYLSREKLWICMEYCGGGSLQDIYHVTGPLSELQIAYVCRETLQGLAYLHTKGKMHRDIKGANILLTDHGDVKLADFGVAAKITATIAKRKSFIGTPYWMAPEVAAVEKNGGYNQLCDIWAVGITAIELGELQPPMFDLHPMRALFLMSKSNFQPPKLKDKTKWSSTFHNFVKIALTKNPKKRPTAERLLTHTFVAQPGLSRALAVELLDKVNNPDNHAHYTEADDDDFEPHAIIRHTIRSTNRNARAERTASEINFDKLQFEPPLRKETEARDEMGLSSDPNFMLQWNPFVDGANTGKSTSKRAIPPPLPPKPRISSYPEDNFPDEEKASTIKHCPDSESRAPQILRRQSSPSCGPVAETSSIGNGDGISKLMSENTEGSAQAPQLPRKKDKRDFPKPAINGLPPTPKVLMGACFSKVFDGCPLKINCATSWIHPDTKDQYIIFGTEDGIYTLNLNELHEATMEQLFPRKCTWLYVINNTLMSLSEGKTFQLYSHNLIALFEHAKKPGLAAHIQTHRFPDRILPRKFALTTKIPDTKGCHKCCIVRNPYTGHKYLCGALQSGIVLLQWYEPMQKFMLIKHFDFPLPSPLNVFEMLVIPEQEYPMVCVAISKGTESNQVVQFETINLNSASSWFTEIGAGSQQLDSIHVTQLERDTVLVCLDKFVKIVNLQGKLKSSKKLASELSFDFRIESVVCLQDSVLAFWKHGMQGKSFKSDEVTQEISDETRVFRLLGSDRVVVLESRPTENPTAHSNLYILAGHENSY
# Chain of UniProt Q08345 (whole entry, looked up): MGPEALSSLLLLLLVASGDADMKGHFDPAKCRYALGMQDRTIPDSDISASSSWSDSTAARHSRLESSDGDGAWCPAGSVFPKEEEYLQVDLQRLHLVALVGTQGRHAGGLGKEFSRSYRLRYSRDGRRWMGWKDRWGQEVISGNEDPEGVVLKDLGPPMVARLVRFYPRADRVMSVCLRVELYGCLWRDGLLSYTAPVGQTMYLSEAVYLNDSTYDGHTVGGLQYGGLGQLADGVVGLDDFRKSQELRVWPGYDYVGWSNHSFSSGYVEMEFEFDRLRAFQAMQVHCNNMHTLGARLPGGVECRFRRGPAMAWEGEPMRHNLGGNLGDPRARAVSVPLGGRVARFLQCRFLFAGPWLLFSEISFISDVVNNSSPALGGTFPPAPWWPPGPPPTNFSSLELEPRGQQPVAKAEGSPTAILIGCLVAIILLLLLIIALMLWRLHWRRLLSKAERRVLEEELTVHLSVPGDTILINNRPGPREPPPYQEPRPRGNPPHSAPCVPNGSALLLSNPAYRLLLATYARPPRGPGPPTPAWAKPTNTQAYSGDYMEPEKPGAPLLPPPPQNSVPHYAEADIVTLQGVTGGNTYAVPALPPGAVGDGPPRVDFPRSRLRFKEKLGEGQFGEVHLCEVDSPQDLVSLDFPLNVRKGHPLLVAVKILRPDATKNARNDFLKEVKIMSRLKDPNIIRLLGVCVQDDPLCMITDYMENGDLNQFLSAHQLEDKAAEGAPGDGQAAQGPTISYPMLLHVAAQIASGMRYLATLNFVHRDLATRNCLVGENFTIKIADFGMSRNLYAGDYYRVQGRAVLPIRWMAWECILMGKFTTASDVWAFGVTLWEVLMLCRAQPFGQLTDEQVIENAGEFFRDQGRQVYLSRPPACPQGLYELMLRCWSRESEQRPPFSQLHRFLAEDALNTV
# Chain of UniProt Q13546 (whole entry, looked up): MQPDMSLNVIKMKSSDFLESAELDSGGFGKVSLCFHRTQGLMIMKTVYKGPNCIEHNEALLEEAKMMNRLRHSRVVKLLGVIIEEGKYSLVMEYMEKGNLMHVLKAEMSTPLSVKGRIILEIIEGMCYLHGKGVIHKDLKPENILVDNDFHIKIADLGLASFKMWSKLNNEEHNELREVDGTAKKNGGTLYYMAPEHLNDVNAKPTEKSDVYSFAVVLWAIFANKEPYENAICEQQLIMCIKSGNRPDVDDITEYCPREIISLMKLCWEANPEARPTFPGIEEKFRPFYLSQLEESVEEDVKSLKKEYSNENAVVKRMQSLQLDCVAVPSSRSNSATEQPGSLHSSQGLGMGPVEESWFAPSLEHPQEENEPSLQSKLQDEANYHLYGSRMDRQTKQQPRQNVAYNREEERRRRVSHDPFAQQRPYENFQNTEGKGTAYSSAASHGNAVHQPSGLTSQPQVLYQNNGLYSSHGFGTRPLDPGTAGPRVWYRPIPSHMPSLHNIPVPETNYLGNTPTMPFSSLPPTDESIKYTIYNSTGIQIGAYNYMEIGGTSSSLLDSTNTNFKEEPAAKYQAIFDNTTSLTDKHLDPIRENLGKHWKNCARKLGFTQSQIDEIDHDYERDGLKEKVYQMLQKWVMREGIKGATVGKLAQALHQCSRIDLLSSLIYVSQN
# Chain of UniProt Q16584 (whole entry, looked up): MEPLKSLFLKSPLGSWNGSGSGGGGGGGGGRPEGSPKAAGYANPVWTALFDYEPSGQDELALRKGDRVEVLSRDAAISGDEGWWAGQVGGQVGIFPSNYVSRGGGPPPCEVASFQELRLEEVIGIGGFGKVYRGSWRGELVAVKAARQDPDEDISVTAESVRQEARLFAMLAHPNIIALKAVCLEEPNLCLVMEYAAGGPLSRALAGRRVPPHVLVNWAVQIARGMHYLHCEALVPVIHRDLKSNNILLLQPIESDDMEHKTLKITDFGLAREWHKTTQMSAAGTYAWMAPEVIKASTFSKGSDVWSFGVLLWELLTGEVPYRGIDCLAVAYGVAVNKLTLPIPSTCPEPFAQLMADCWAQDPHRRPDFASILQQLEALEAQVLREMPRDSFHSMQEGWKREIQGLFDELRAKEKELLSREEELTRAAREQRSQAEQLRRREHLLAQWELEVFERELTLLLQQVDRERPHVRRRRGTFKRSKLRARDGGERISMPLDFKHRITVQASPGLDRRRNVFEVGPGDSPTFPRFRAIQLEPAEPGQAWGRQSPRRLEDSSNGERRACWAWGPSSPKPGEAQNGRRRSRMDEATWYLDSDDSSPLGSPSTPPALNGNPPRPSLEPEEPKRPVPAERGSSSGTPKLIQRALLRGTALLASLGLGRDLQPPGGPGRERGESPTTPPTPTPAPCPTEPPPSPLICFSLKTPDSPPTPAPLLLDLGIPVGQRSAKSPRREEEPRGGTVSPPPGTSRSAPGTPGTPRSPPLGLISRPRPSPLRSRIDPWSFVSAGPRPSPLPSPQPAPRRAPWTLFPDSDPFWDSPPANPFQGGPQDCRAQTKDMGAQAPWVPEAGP
# Chain of UniProt P10721 (whole entry, unmodified, looked up): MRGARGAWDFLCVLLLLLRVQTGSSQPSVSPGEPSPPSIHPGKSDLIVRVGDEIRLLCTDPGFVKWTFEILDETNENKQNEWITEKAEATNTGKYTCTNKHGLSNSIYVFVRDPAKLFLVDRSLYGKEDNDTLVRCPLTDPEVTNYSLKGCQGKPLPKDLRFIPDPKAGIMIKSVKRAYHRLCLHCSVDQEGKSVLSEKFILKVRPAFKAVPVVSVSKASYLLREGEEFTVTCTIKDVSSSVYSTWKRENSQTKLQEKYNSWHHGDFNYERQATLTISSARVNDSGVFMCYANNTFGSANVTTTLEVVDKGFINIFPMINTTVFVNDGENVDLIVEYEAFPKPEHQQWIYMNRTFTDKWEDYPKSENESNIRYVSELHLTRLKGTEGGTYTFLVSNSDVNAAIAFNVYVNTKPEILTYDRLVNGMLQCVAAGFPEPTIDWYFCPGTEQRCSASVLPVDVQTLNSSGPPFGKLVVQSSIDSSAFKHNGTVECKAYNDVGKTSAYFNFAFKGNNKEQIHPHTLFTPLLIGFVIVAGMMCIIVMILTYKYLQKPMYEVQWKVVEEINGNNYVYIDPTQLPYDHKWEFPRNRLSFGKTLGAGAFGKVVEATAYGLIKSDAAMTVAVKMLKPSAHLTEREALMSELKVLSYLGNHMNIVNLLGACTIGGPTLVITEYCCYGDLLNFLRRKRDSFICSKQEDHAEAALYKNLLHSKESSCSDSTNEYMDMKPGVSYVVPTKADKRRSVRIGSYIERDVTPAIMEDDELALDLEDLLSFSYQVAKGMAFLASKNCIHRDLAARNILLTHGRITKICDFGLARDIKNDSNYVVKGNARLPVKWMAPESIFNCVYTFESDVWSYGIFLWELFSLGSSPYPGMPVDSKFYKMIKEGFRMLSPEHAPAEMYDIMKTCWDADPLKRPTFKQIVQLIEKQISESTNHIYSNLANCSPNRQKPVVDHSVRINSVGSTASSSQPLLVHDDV

# Set 1
# SMILES: N#CC1(c2ccccn2)CCN(Cc2cc(C(=O)N3CCCC3)c(=O)n3ccccc23)CC1
# Effect on: cell-free assay
# Method: competition with immobilised ligand
# Concentration: 1 µM
target,remaining binding
"KIT (Homo sapiens, UniProt P10721, D816V)",100%
"AKT1 (Homo sapiens, UniProt P31749)",91%
"Tyrosine-protein kinase ABL1, non-phosphorylated (ABL1, Homo sapiens, UniProt P00519, H396P)",77%
"SNRK (Homo sapiens, UniProt Q9NRH2)",91%
"Ribosomal protein S6 kinase alpha-4, C-terminal kinase domain (RPS6KA4, Homo sapiens, UniProt O75676)",100%
"FGFR2 (Homo sapiens, UniProt P21802)",91%
"MAP3K11 (Homo sapiens, UniProt Q16584)",89%
"EGFR (Homo sapiens, UniProt P00533, G719S)",100%
"PRKCD (Homo sapiens, UniProt Q05655)",95%
"DDR1 (Homo sapiens, UniProt Q08345)",85%
"RAF1 (Homo sapiens, UniProt P04049)",100%
"MAP4K5 (Homo sapiens, UniProt Q9Y4K4)",75%
"RIPK1 (Homo sapiens, UniProt Q13546)",100%
"Ribosomal protein S6 kinase alpha-2, C-terminal kinase domain (RPS6KA2, Homo sapiens, UniProt Q15349)",86%
"PIK3C2B (Homo sapiens, UniProt O00750)",100%
"TNIK (Homo sapiens, UniProt Q9UKE5)",100%
"HIPK1 (Homo sapiens, UniProt Q86Z02)",77%

# Set 2
# Structure (SMILES): c1ccc(Oc2ccc(Nc3c4c(nc5ccccc35)CCC4)cc2)cc1
cell line,assay,conditions,cytotoxicity
RAW264.7,resazurin,0.0166 µM,-7% and -1%
PMA-differentiated THP-1 macrophages,,"0.008 µM, 64 h",2% and 10%
HEK293,resazurin,"0.00332 µM, 10% serum",3% and 7%
HepG2,resazurin,"0.066 µM, 48 h",2% and 1%

# Set 3
# Target: DDIT3, bZIP domain (human)
# Method: DHFR protein complementation
# Medium: yeast
# Notes: single substitutions, most at no-binding floor
# Baseline: wild-type JUN-FOS pair
# Direction: higher = stronger binding
# Starting sequence: JUN, bZIP domain (human); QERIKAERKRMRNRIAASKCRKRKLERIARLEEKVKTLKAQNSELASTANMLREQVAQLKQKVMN; partner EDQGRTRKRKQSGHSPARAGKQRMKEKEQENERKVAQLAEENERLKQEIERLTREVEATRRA
Change,binding fitness
K39N,-0.217 natural log
A49D,-1.37 natural log
E33L,-0.0536 natural log
R53V,-0.615 natural log
Q41T,-0.146 natural log
L31K,-1.22 natural log
A40T,0.0681 natural log
I28V,-0.0282 natural log

# Set 4
# Host: human
# Medium: microsomes or S9
# Concentration: 2 µM
# Time: 0.5 h
SMILES,remaining compound
CCOC(=O)C(CCC1(Cc2cccs2)C(=O)OC(C)(C)OC1=O)(NC(C)=O)C(=O)OCC,6.33%
CCOC(=O)c1cccc(NC(=O)N2Cc3c(sc4c3CCCC4)-n3cccc3C2C)c1 (centres unmarked),0.291%
COc1cc(Br)ccc1C1NCCc2c1[nH]c1ccccc21 (centres unmarked),49.7%
O=c1[nH]c2ncccc2n1Cc1nnc2ccc(-c3cccc(F)c3)nn12,> 99%

# Set 5
# Cell line: UACC-903 melanoma
Structure (SMILES),IC50 [µM]
CN(C)CCC=C1c2ccccc2C=Cc2ccccc21,22.7
CNCCCC1c2ccccc2C=Cc2ccccc21,10.8
CC(NCCC(c1ccccc1)c1ccccc1)c1ccccc1 (centres unmarked),8.7

# Set 6
# Cell line: mouse MPNST tumor cells
# Method: high-content immunofluorescence imaging
# Refers to: nuclear SOX9
# Concentration: 10 µM
# Time: 12 h
# Notes: mean of 2 replicates
# Baseline: DMSO control
# Direction: higher = more nuclear SOX9
SMILES,nuclear SOX9 intensity
O=C(O)[C@H]1/C(=C/CO)O[C@@H]2CC(=O)N21,93.7 % of DMSO
Cc1ccc2c(c1)c1c3n2CCNC3CCC1 (centres unmarked),156 % of DMSO
O=C1NC(=O)c2cc(Nc3ccccc3)c(Nc3ccccc3)cc21,164 % of DMSO

# Other studies, line by line
SMILES,assay,system,conditions,endpoint,value
CC(=O)N[C@@H](Cc1c[nH]c2ccccc12)C(=O)N[C@@H](CCC(=O)C=[N+]=[N-])C(=O)OC(C)C,,"mouse, EL4 tumour","subcutaneous, 0.3 mg/kg, day 9",tumour volume,333 mm3 and 705 mm3 and 826 mm3 and 206 mm3 and 624 mm3 and 448 mm3
CC(C)n1cnc(-c2ccc(F)cc2)c1-c1ncc(C(=O)Nc2ccc(N3CCN(C)CC3)cc2)[nH]1,phase 2a trial,idiopathic pulmonary fibrosis patients,"30 mg once daily, adverse event grade 4",patients with dyspnoea,0%

# Some of these lines once more (set 2):
cell line,assay,conditions,cytotoxicity
HEK293,resazurin,"0.00332 µM, 10% serum",3% and 7%
HepG2,resazurin,"0.066 µM, 48 h",2% and 1%
